Experimental data from different studies.
Each numbered part is a random draw from the data of one study; scales do not carry over between parts. Changes are numbered by the printed parent chain.

Series 1
Target: RNA binding protein fox-1 homolog 2, RRM domain, GST-SBP tag (RBFOX2, Homo sapiens, UniProt O43251-10, residues 100-194)
Technique: RNA Bind-n-Seq
Molecule type: RNA
Sample: in vitro
Tested at: 365 nM
Notes: natural RNA segment, single round, ends assumed
Relative to: no-protein control
Reading: higher = stronger binding
All sequences stand within: GGGAGUUCUACAGUCCGACGAUC … UGGAAUUCUCGGGUGCCAA
Residues (chain): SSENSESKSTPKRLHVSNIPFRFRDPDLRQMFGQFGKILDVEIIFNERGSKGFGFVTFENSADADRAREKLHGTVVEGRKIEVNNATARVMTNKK
| Strand | RBNS enrichment (R) |
| --- | --- |
| CAGCUACCUGGGAGGCUGAGGAAGGAGGAUCGCUUGAGCCCAGGAGGUGGAGGCUGCAGUGAGCCAAGAUUGUACCACUGCACUCCAGCCUGGGUGACAGAGCAAGACUC | 0.409 |
| AUGGAAGAAAAAUCUCAACCAAAGUUAUGCUCUUCCUGACAAGCUGACCCUUGAGUUAAUUUUAGCACAACUCAUUCUUCAGUGCCUCAUUAUGAAAGACAAAAAGCAUC | 0.817 |
| AUUUGUAUGGUAAAUAUAUACAUAGGUCCAUUUCAGAAAAAAAAUCAUGAUUGUAAAGGGAAUAUAUAACCACACAGAUUUUAUAGCUGCUUCCUGGUUAUCACUUACAU | 0.4 |
| GAGGAUAAGAGAUUUUCUCACAGGAAAUUGUCUUUUUCAUAAUUCUUUUACAGGCUUUGUCCUGAUCGUAGCAUAGAGAGAAUAGCUGGAUAUUUAACUUGUAUUCCAUU | 0.743 |
| CUUUGGUUGUAUGAUUUUCUUCUUUUUUAAGAACCCCUGGAAGCAGCGCCUCCUUCAGGGUUGGCUGGGAGCUCGGCCCAUCCACCUCUUGGGGUACCUGCCUCUCUCUC | 0.297 |

Series 2
Target: CCNF, cyclin fold, Cln2 fusion (human)
Technique: yeast growth competition, sequencing
Sample: yeast
Notes: strong parent motif
Relative to: not given
Reading: higher = stronger binding
Starting sequence: RBL1 docking peptide (human); GSAKRRLFGEDPP
| Substitution | normalised enrichment score |
| --- | --- |
| F8L | 1.16 |
| G1C | 7.98 |
| S2M | 6.76 |
| L7C | 0.16 |
| S2L | 7.17 |
| R5Q | 0.458 |
| L7F | 0.744 |
| G1R | 8.1 |

Series 3
Target: Histone acetyltransferase KAT6A, winged helix 1, GST fusion (KAT6A, Homo sapiens, UniProt Q92794, residues 1-85)
Technique: protein binding microarray
Molecule type: double-stranded DNA, one strand shown
Sample: in vitro
Tested at: not given
Notes: 8-mer, flanks averaged, mean of 2 arrays, mostly near background
Relative to: not given
Reading: higher = stronger binding
Target sequence (chain): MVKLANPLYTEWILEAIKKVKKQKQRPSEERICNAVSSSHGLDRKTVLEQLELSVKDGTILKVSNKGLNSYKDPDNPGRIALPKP
| Strand | E-score |
| --- | --- |
| TACGCGGA | 0.208 |
| GGCTTGCA | -0.0565 |
| TATGTGGA | -0.171 |
| GAGTAGGC | -0.111 |

Mixed results
| Substance | target | assay | system | conditions | how to read | measurement | result |
| --- | --- | --- | --- | --- | --- | --- | --- |
| PhoQ, residues 284 288 289 292 302 303 ASVMEA | PhoP, residues 12 14 15 18 19 FWNTL (Escherichia coli, UniProt P23836) | Sort-seq, refers to: YFP reporter | E. coli | PhoQ-PhoP variant library, added: 10 µM Mg2+ | relative to: high Mg2+ state, higher = stronger signaling | fold induction | 9.5 |
